Published values from different studies.
A part holds a random share of what one study measured. Values joined by “and” are separate records of one study, mostly repeats; a detail may differ.

Study 1
Target: Tyrosine-protein kinase Yes (YES1, Homo sapiens, UniProt P07947)
Sequence of UniProt P07947 (whole entry, looked up): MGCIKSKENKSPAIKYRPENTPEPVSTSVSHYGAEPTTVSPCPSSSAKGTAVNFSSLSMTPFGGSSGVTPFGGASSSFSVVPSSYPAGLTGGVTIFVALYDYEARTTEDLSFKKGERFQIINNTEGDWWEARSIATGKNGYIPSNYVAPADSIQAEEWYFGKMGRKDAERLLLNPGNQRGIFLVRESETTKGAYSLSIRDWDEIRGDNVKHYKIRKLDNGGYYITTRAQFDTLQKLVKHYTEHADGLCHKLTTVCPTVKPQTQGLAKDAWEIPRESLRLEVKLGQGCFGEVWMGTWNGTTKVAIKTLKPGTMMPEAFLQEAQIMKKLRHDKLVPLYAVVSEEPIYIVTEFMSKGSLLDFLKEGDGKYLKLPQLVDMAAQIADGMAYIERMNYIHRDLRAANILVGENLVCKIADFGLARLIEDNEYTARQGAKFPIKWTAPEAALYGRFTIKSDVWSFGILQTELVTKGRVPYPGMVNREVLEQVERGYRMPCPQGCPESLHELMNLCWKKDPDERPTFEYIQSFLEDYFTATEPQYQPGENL
Observed: enzyme activity
Mode: inhibitor
Concentration: 0.5 µM
Relative to: control
COc1cc2ncnc(Nc3ccc(O)c(Br)c3)c2cc1OC gave a remaining activity of 34.6%.
For O=C1c2ccccc2-c2n[nH]c3cccc1c23, the remaining activity was 88.2%.
With c1ccc(-c2[nH]ncc2-c2ccnc3ccccc23)nc1 the remaining activity was 93.3%.
The remaining activity of CN([C@@H](Cc1ccc(OS(=O)(=O)c2cccc3cnccc23)cc1)C(=O)N1CCN(c2ccccc2)CC1)S(=O)(=O)c1cccc2cnccc12 is reported as 110%.
For Cn1nc2c3c(cccc31)C(=O)c1ccccc1-2, the remaining activity was 94.5%.
CCN(CC)CCNC(=O)c1c(C)[nH]c(/C=C2\C(=O)Nc3ccc(Cl)cc32)c1C gave a remaining activity of 5.29%.
For CN(C)C[C@H]1CCn2c(c(C3=C(c4cn(C)c5ccccc45)C(=O)NC3=O)c3ccccc32)C1, the remaining activity was 95.3%.
The remaining activity of CCN(CC)CCNC(=O)c1c(C)[nH]c(/C=C2\C(=O)Nc3ccc(F)cc32)c1C is reported as 5.91%.
N#Cc1c(NC(=O)c2cccc3ccccc23)sc2c1CCCC2 gave a remaining activity of 104%.
The remaining activity of O=C(NC(NC(=S)Nc1ccc(F)c([N+](=O)[O-])c1)C(Cl)(Cl)Cl)C(c1ccccc1)c1ccccc1 (stereo not shown) is reported as 94.6%.
O=C1C(Cl)=C(N2C(=O)CCC2=O)C(=O)c2ccccc21 gave a remaining activity of 103%.

Study 2
Species: human
Sample: microsomes or S9
Concentration: 2 µM
Time: 0.5 h
With CC(C)c1cc(C(=O)N2CCC(Oc3ccc(-c4ccc(S(C)(=O)=O)cc4F)nc3)CC2)no1 the remaining compound was 21.9%.
For COc1ccc(CCNC(=O)C2Cc3ccccc3CN2S(=O)(=O)c2cccs2)cc1OC (stereo not shown), the remaining compound was 0.0993%.
For COc1cccc(CN(c2nc3nc(C)c(Cl)c(C)n3n2)S(=O)(=O)c2ccc(Cl)cc2)c1, the remaining compound was 1.52%.
COc1ccc(Cc2nc(-c3ccc(S(C)(=O)=O)cc3)c(C)s2)cc1 has a remaining compound of 51.9%.
With Nc1ncnc2c1ncn2C[C@@H]1CC[C@H](c2nc(C3CCC3)no2)O1 the remaining compound was > 100%.

Single results of other studies
ABL1 F317I non-phosphorylated: Tyrosine-protein kinase ABL1, non-phosphorylated (ABL1, Homo sapiens, UniProt P00519, F317I)
Sequence of UniProt P00519 (whole entry, unmodified, looked up): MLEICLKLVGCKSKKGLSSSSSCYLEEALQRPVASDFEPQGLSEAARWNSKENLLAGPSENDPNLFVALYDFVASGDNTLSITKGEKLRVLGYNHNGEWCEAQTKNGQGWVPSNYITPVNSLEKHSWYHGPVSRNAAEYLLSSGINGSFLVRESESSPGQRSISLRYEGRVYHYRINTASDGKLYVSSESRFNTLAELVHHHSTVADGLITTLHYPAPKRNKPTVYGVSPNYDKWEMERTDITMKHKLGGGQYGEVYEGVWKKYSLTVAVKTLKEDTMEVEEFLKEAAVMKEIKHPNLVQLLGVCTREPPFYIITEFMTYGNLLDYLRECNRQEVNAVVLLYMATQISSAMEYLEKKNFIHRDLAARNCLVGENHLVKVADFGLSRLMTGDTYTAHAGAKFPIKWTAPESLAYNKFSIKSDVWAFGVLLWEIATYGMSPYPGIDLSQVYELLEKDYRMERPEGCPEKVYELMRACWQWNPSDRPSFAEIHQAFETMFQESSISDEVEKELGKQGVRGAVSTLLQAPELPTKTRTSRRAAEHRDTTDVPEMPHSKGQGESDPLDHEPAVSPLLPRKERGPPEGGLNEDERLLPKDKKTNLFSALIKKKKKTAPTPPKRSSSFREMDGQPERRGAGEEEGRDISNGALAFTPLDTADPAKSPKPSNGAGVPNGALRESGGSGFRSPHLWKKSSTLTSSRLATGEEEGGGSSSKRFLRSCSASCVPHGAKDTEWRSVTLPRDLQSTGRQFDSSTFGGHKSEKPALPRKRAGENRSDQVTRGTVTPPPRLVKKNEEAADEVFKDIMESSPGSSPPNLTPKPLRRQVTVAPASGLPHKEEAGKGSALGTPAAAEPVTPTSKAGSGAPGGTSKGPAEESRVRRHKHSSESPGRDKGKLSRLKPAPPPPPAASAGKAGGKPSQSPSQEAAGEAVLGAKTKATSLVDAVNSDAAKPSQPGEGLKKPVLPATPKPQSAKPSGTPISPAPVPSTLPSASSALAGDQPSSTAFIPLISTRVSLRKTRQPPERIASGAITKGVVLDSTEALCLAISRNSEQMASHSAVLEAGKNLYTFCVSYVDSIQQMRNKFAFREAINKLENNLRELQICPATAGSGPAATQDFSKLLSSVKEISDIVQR
With Cc1ccc(-c2cnc([C@@]3(O)CC[C@H](C(=O)O)C(C)(C)C3)s2)cc1Nc1cccc(C(F)(F)F)n1 the remaining binding was 84.1% (ABL1 F317I non-phosphorylated; binding, competition with immobilised ligand; 0.1 µM).
For c1ccc(Oc2ccc(Nc3c4c(nc5ccccc35)CCC4)cc2)cc1, the logD was > 5.3 (HPLC retention; pH 7.4).
Under “cells with high Hoechst intensity”, Cn1cncc1[C@@](O)(COc1ccc(C#N)cc1-c1ccc(OC(F)(F)F)cc1)c1ccc(C#N)cc1 is recorded as 14.3% and 6.3% (HEK293T; high-content imaging; 10 µM, 12 h).
Ic1ccc(Nc2nc(NCCN3CCOCC3)nc(N3CCOCC3)n2)cc1 gave a mRNA level of 0.823 and 0.722 and 1.01 and 0.544 and 1.13 (Gaucher fibroblasts; qPCR, refers to: GBA1 mRNA; 1 µM, unit not given; relative to: vehicle).
With C[C@@H](NC(=O)Nc1cc2[nH]ncc2c(CO)n1)c1ccccc1 the remaining binding was 100% (ABL1 F317I non-phosphorylated; binding, competition with immobilised ligand; 0.1 µM).
The Cmin of COc1ccc(-c2c(Nc3ccccn3)[nH]c3c(C4=CCCCC4)c(-c4ccccc4)nn3c2=O)cc1 is reported as 1090 ng/mL and 1160 ng/mL and 858 ng/mL (LC-MS/MS; human, plasma; oral, 50 mg once daily).

Excerpt of the above (study 2):
With CC(C)c1cc(C(=O)N2CCC(Oc3ccc(-c4ccc(S(C)(=O)=O)cc4F)nc3)CC2)no1 the remaining compound was 21.9%.
